{"data": "Experimental data from different studies", "note": "Numbered parts are unrelated; each lists some results of a single study."}
{"data": "Set 1", "target": "TAR DNA-binding protein 43, full length, His tag (TARDBP, Homo sapiens, UniProt Q13148, residues 1-414)", "method": "RNA Bind-n-Seq", "molecule type": "RNA", "matrix": "in vitro", "concentration": "20 nM", "notes": "6-mer, flanks averaged, single round", "together with": "150 mM KCl", "relative to": "input library", "direction": "higher = stronger binding"}
{"Sequence": "CUCGGG", "6-mer enrichment (R)": 1.75}
{"Sequence": "GCAGAC", "6-mer enrichment (R)": 0.938}
{"Sequence": "GGGAAG", "6-mer enrichment (R)": 4.9}
{"Sequence": "UAUCUU", "6-mer enrichment (R)": 0.575}
{"Sequence": "AAGUCG", "6-mer enrichment (R)": 0.797}
{"Sequence": "UACAAG", "6-mer enrichment (R)": 0.722}
{"Sequence": "CUCUAC", "6-mer enrichment (R)": 0.55}
{"Sequence": "AGGCGG", "6-mer enrichment (R)": 3.73}
{"Sequence": "CGGCCG", "6-mer enrichment (R)": 1.39}
{"Sequence": "CCAGAC", "6-mer enrichment (R)": 0.699}
{"Sequence": "AGAGCA", "6-mer enrichment (R)": 0.862}
{"Sequence": "UGAGAU", "6-mer enrichment (R)": 0.819}
{"Sequence": "CGUUUG", "6-mer enrichment (R)": 0.733}
{"Sequence": "GACUUA", "6-mer enrichment (R)": 0.629}
{"Sequence": "UGCGCC", "6-mer enrichment (R)": 0.819}
{"Sequence": "GUGACC", "6-mer enrichment (R)": 0.855}
{"Sequence": "GGUUGU", "6-mer enrichment (R)": 1.28}
{"Sequence": "AGUGAU", "6-mer enrichment (R)": 0.8}
{"Sequence": "UGCGCG", "6-mer enrichment (R)": 1.59}
{"Sequence": "GGGCUA", "6-mer enrichment (R)": 1.97}
{"data": "Set 2", "target": "Fragile X messenger ribonucleoprotein 1, C-terminal low-complexity region (Fmr1, Mus musculus, UniProt P35922)", "method": "RNA Bind-n-Seq", "molecule type": "RNA", "matrix": "in vitro", "concentration": "200 nM", "notes": "whole 134-nt RNA, ends assumed", "together with": "150 mM KCl", "relative to": "input library", "direction": "higher = stronger binding", "shared flanks, not repeated": "GGGAGUUCUACAGUCCGACGAUC … UGGAAUUCUCGGGUGUCAAGG"}
{"Sequence": "UCAAGUCCUGUGCUACACAUCGUAUGUACCGAAUCGGGGCCCGGGCCCGGCCCGGAAAGUAUUAUGUUACGCCGUUCGGAUCUGCACUUC", "log2 enrichment": -0.73}
{"Sequence": "GUCCUGUGCUACACAUCGUAUGUACCGAAUCGGCCCCCCGGGCCCCCCGGGCCCCCCGGAAAGUAUUAUGUUACGCCGUUCGGAUCUGCA", "log2 enrichment": -0.264}
{"Sequence": "CACAGACAACACGCACCCACACAGACACAGAGGUAAGGGGUUGGGAUGGGGACAGGGUGCACAGCAGGGCGGGGUAGGACCCCAGCCCCU", "log2 enrichment": 1.33}
{"Sequence": "UCCUCAAGUCCUGUGCUACACAUCGUAUGUACCGAAUCGGGGCGGCGGGCGGAAAGUAUUAUGUUACGCCGUUCGGAUCUGCACUUCCAG", "log2 enrichment": 0.24}
{"Sequence": "CAAGUCCUGUGCUACACAUCGUAUGUACCGAAUCGGUUUGGGGUUUGGGUUUGGGGAAAGUAUUAUGUUACGCCGUUCGGAUCUGCACUU", "log2 enrichment": 0.0561}
{"Sequence": "GCAGGACGUAAAAACAAAUGGAAAUGCUUCGGAUAGUGGCAGGGGUGGGGGUUGCUAAGGAAAGGGUGGGAUGGGAGUGGGUAAAGAGUU", "log2 enrichment": 0.959}
{"Sequence": "UCUAUCCUGUCCCUCCACCCCACCCUCCACCUCAAUCCCCUCCCAUCUUCCCCAGACCUACCUCACCUACUAGGACCUGAGGCAGCUCCU", "log2 enrichment": 0.338}
{"Sequence": "UAACUUUAGAGGAGGAUCUGAUGGAUAUGGCAGUGGACGUGGAUUUGGGGAUGGCUAUAAUGGGUAUGGAGGAGAACCUGGAGGUGGCAA", "log2 enrichment": 0.251}
{"Sequence": "UGGCCCUGGUGGCAUGCGGGGAGGAAGAGGUGGCCUCAUGGAUCGUGGUGGUCCCGGUGGAAUGAUCAGAGGUGGCCGUGGUGGAGACAG", "log2 enrichment": -0.059}
{"Sequence": "CCUCAAGUCCUGUGCUACACAUCGUAUGUACCGAAUCGGUGGUGGGGUGGGGAAAGUAUUAUGUUACGCCGUUCGGAUCUGCACUUCCAG", "log2 enrichment": 0.392}
{"data": "Set 3", "target": "RNA binding protein fox-1 homolog 2, RRM domain, GST-SBP tag (RBFOX2, Homo sapiens, UniProt O43251-10, residues 100-194)", "method": "RNA Bind-n-Seq", "molecule type": "RNA", "matrix": "in vitro", "concentration": "365 nM", "notes": "natural RNA segment, single round, ends assumed", "relative to": "no-protein control", "direction": "higher = stronger binding", "shared flanks, not repeated": "GGGAGUUCUACAGUCCGACGAUC … UGGAAUUCUCGGGUGCCAA", "Residues (chain)": "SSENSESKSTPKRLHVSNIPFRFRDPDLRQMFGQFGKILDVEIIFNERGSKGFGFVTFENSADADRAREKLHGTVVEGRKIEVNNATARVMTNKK"}
{"Sequence": "UGCCGUGCUUACGUUAUUUAUUAGCUGUAGCCAUUUCUGUCUUGGCUCUCACUUCCUCUGCCCUUCCCUCUGAGCAGCCAUAGUGACAUUUACUAUGAAUUUACUUCCUC", "RBNS enrichment (R)": 0.253}
{"Sequence": "AGUGCACAGUCCCAGAGUCACGAGGCGUGGACUUCCUUCCCCACGAUGGGCCAGGGGGCCUUACCAUUUCCCUGGGCUCUACUGCCUAGACAAACCCAGCCCGGACUCCA", "RBNS enrichment (R)": 0.42}
{"Sequence": "CACUCAGAGGUCUGAGAGCCUACCAUGUGGAACAGUGUAAGCAGAAAGGCCAUCUUCCCACUGUCCUGCCAGCAGCUGUUCUGGGUAGCAGCAAUUGCAGAGUGACCAGU", "RBNS enrichment (R)": 0.349}
{"Sequence": "CCAAAUUUCACCCAUUCCUGACUUUGAAUCAAUUGCAGAAAUGCAGGUGUGUUACUUUGUUGAUCAAUAACUUUGGAACAAUUAUGGAUCAAUUCUAUGGUCACUCUGAA", "RBNS enrichment (R)": 0.494}
{"Sequence": "GCUUCCUCAGGAUUUUCUUCAGUUGCAAGUACCUUUCCACUGAAAAUAUGAGCAUGCCCGCCUGGCUAGUAGGCAUCUGUAAGAGUGUCGCCAGGCCCGCGCCAGCUGAG", "RBNS enrichment (R)": 0.61}
{"Sequence": "UUUCCUAUACUAUACAUAUAUAUGUGUUCUGGUCGGCAAAGCCUGCCGACCAGAGGAAGUCUCUCUGCAUGUUCUAGUGUUAGUAACUAAUUUUUAUAUAGCUAAUGUAG", "RBNS enrichment (R)": 4.23}
{"Sequence": "ACUGUAGCACAUCUCUGGGCGUUUCCCUACCCAGAGAAGAGCCCCCCCCUUUGAUACAAAUCGGUUGGAUUUUCAUAUGCUUCAAAGGCUUGAUCUGUGAGUCACUCUCC", "RBNS enrichment (R)": 0.527}
{"Sequence": "UAUCCAUAUUACGUUGUUUCUUAUAGAUUUUUUAAAAAAAAUGUGAAAUUUUUCCACACUAUGUGUGUUGUUUCCAUAGCUGUUCACUUCCUCCAGAAGCCUCCUUACAU", "RBNS enrichment (R)": 0.569}
{"Sequence": "AUUCACUGAAAUCCACAUGAUUCAGUUCUAGCUCUGGAUUACCUCAGUUGACCUUUGUGGAGGUUUUAUCUAUAGAGUAGUUCUUGCCUUGUCAUAGACCUUAUUAGGGU", "RBNS enrichment (R)": 1.38}
{"Sequence": "CUUCUGGCUGGAAUGCUGUUCACGUCUGCAUCCAGCCCUGGGAUCGGCCUUCGUGUAUGGUUUCACCUUCCCAUGCUGCACUCUUUCCUGAGCCAUGUGGGAGUCGUGUG", "RBNS enrichment (R)": 0.266}
{"Sequence": "ACUGUCCCUUCUCUUCCUACCUCCAUCCAUGGAAAAUUAGUUAUUUUCUGAUCCUUUCCCCUGCCUGGUCUAGCUCCUCUCCAAACAGCCAUGCCCUCCAAAUGCUAGAG", "RBNS enrichment (R)": 1.17}
{"Sequence": "UUGAAUGGGGUGAAAAACAGCAAAAUUAAUUCUUAGCAAGCUCCUUGUUCUCUACUGUUCACCGGGACCUGGCUGGCAAAUGACUUAGCUAUUAGUAUAUUUAAAAACUG", "RBNS enrichment (R)": 0.539}
{"data": "Set 4", "target": "Prothrombin, mature alpha-thrombin (F2, Homo sapiens, UniProt P00734)", "method": "aptamer microarray, sandwich", "molecule type": "DNA with 2'F-ANA", "matrix": "in vitro", "concentration": "200 nM", "notes": "whole 15-mer aptamer, many near background", "together with": "Cy3 exosite-II aptamer, 400 nM", "direction": "higher = stronger binding", "sequence": "GGTTGGTGTGGTTGG"}
{"Modification": "2'F-ANA at 2 3 4 6 7 8 9 10 12 13 14 15", "mean fluorescence intensity [a.u.]": 161}
{"Modification": "2'F-ANA at 1 2 3 7 11 12 13 14 15", "mean fluorescence intensity [a.u.]": 89.5}
{"Modification": "2'F-ANA at 1 7 9 11", "mean fluorescence intensity [a.u.]": 183}
{"Modification": "2'F-ANA at 1 3 9 10 11 12 14 15", "mean fluorescence intensity [a.u.]": 65.7}
{"Modification": "2'F-ANA at 2 3 4 5 6 7 9 11 13 14 15", "mean fluorescence intensity [a.u.]": 48.1}
{"Modification": "2'F-ANA at 2 6 7 8 9 10 15", "mean fluorescence intensity [a.u.]": 174}
{"Modification": "2'F-ANA at 3 5 7 11 12 14 15", "mean fluorescence intensity [a.u.]": 60.7}
{"Modification": "2'F-ANA at 1 2 5 6 7 8 9 12 13 14 15", "mean fluorescence intensity [a.u.]": 50.8}
{"Modification": "2'F-ANA at 3 7 9 12 14", "mean fluorescence intensity [a.u.]": 757}
{"Modification": "2'F-ANA at 1 5 9 10 11 13 14 15", "mean fluorescence intensity [a.u.]": 48}
{"Modification": "2'F-ANA at 2 4 6 8 10 11 13 14", "mean fluorescence intensity [a.u.]": 59.4}
{"Modification": "2'F-ANA at 3 5 6 7 8 10 12", "mean fluorescence intensity [a.u.]": 73.1}
{"Modification": "2'F-ANA at 6 8 10 11 12 13 15", "mean fluorescence intensity [a.u.]": 158}
{"Modification": "2'F-ANA at 1 2 4 7 11 15", "mean fluorescence intensity [a.u.]": 102}
{"Modification": "2'F-ANA at 1 4 5 6 7 8 9 10 14 15", "mean fluorescence intensity [a.u.]": 199}
{"Modification": "2'F-ANA at 1 2 3 6 10 14 15", "mean fluorescence intensity [a.u.]": 53.4}
{"Modification": "2'F-ANA at 3 8 9 10 11 14 15", "mean fluorescence intensity [a.u.]": 353}
{"note": "Some of these lines once more (set 1):"}
{"Sequence": "AGAGCA", "6-mer enrichment (R)": 0.862}
{"Sequence": "UGAGAU", "6-mer enrichment (R)": 0.819}
{"Sequence": "CGUUUG", "6-mer enrichment (R)": 0.733}
{"Sequence": "GACUUA", "6-mer enrichment (R)": 0.629}
{"Sequence": "UGCGCC", "6-mer enrichment (R)": 0.819}
{"Sequence": "GUGACC", "6-mer enrichment (R)": 0.855}
{"Sequence": "GGUUGU", "6-mer enrichment (R)": 1.28}
